Assay results pooled from the literature.
Lines come from different studies, so protocols differ. ± marks the error that the study gave.

| SMILES | organism | assay | test system | setting | IC50 |
| --- | --- | --- | --- | --- | --- |
| COC(=O)CCCC1C2CCCN3CCCC(CN1S(=O)(=O)c1ccc(Cl)cc1)C23 (stereo not drawn) | Ebola virus | viral entry | – | EBOV GP pseudotyped HIV | 8.23 µM |
| CN1CCN(C(=O)N[C@@H](Cc2ccccc2)C(=O)N[C@H](/C=C/S(=O)(=O)c2ccccc2)CCc2ccccc2)CC1 | Middle East respiratory syndrome-related coronavirus | pseudovirus entry | Vero | – | 0.046 µM |
| CC(=O)OCCOCn1cnc(C#N)c1C#N | Zaire ebolavirus | viral replication, inhibitor | Vero | 72 h | 52 µg/mL |
| CC(=O)OCCCCCCCCCC1O[C@@H]2C[C@H]3[C@@H]4CCC5=CC(=O)C=C[C@]5(C)[C@H]4[C@@H](O)C[C@]3(C)[C@]2(C(=O)CO)O1 (stereo partly drawn) | Severe acute respiratory syndrome coronavirus 2 | viral replication | VeroE6/TMPRSS2 | – | 6.7 µM |
| COc1cccc2c1C(=O)c1c(O)c3c(c(O)c1C2=O)C[C@@](O)(C(C)=O)C[C@@H]3O[C@H]1C[C@H](N)[C@H](O)[C@H](C)O1 | SARS-CoV-2 NLuc reporter | viral replication | Calu-3 | 16 h compound pretreatment | 0.084 µM |
| NC(=O)c1ncn(C2OC(CO)C(O)C2O)c1C(N)=O (stereo not drawn) | Severe acute respiratory syndrome coronavirus | viral replication | Vero | 48 h | 26 µg/mL |
| O=C(O)CCCC1C2CCCN3CCCC(CN1C(=O)c1ccc(Cl)cc1)C23 (stereo not drawn) | Ebola virus | viral entry | – | EBOV GP pseudotyped HIV | > 200 µM |
| COC(=O)c1ncn(CCOP(=O)(O)O)c1C(=O)OC | Mammarenavirus lassaense | viral replication, inhibitor | Vero | 48 h | 25 µg/mL |
| CC(C)CC(=O)OC1C=CC=CC(=O)OC2C(C)CC3C2(O)C(O)C2(CO)OC2C2C4OC5(c6ccccc6)OC(C(C)C23O5)C4(O)C(C)(O)CC2CCC1C2C (stereo not drawn) | SARS-CoV-2 Delta spike | cell fusion | HeLa-ACE2 cells | – | ~0.001 µM |
| COc1cc(-c2oc3cc(O)cc(O)c3c(=O)c2O[C@@H]2O[C@H](CO)[C@@H](O)[C@H](OC(C)=O)[C@H]2O)ccc1O | influenza A virus | hemagglutination | A/chicken/FPV/Rostock/1934 (H7N1) | – | 47 ± 1.6 µM |
| O=C(O)c1ncn(COCCOCc2ccccc2)c1C(=O)O | Zaire ebolavirus | viral replication, inhibitor | Vero | 72 h | 41 µg/mL |
| C[C@]12C=CC(=O)C=C1CC[C@@H]1[C@@H]2[C@@H](O)C[C@@]2(C)[C@H]1C[C@H]1OC(CCCCCCCCCN=[N+]=[N-])O[C@]12C(=O)CO (stereo partly drawn) | Severe acute respiratory syndrome coronavirus 2 | viral replication | VeroE6/TMPRSS2 | – | 6.6 µM |
| CCC(CC)COC(=O)[C@H](C)N[P@](=O)(OC[C@H]1O[C@@](C#N)(c2ccc3c(N)ncnn23)[C@H](O)[C@@H]1O)Oc1ccccc1 | SARS-CoV-2 BA.1 | viral replication, RT-qPCR of viral RNA | Calu-3 | – | 0.386 µM |
| CCCCCCCCCCCCCCCC1O[C@@H]2C[C@H]3[C@@H]4CCC5=CC(=O)C=C[C@]5(C)[C@H]4[C@@H](O)C[C@]3(C)[C@]2(C(=O)CO)O1 (stereo partly drawn) | Severe acute respiratory syndrome coronavirus 2 | viral replication | VeroE6/TMPRSS2 | – | 19.3 µM |
| CC[C@H](C)[C@H](NC(=O)[C@@H](NC(=O)[C@H](CCC(N)=O)NC(=O)[C@@H](N)CO)C(C)C)C(=O)N[C@@H](CO)C(=O)N[C@@H](CC(N)=O)C(=O)N1CCC[C@H]1C(=O)N[C@@H](Cc1ccc(O)cc1)C(=O)N[C@@H](Cc1ccc(O)cc1)C(=O)N1CCC[C@H]1C(=O)N[C@@H](Cc1ccccc1)C(=O)N[C@@H](Cc1ccc(O)cc1)C(=O)N[C@@H](Cc1ccc(O)cc1)C(=O)N[C@@H](CO)C(=O)O | Ebola virus | pseudovirus infection | – | pseudotyped virus | 27.3 µM |
| COC(=O)c1ncn(CCOC(C)=O)c1C(=O)OC | Zaire ebolavirus | viral replication, inhibitor | Vero | 72 h | 30 µg/mL |
| N=C(N)NCCC[C@H](NC(=O)[C@@H](N)CO)C(=O)N[C@@H](Cc1ccc(O)cc1)C(=O)N[C@@H](Cc1ccc(O)cc1)C(=O)N1CCC[C@H]1C(=O)N[C@@H](Cc1ccccc1)C(=O)N[C@@H](Cc1ccccc1)C(=O)NCC(=O)N[C@@H](CC(=O)O)C(=O)N[C@@H](CO)C(=O)O | Ebola virus | pseudovirus infection | – | pseudotyped virus | 52.6 µM |
| COC(=O)c1ncn(CCO)c1C(=O)OC | Mammarenavirus lassaense | viral replication, inhibitor | Vero | 48 h | 30 µg/mL |
| COC(=O)CCCC1C2CCCN3CCCC(CN1C(=O)c1ccc(Cl)cc1)C23 (stereo not drawn) | Ebola virus | viral entry | – | EBOV GP pseudotyped HIV | 88.2 µM |
| COc1cc(-c2oc3cc(O)cc(O)c3c(=O)c2O[C@@H]2O[C@H](CO)[C@@H](O)[C@H](O)[C@H]2OC(=O)c2cc(O)c(O)c(O)c2)ccc1O | influenza A virus | hemagglutination | A/chicken/FPV/Rostock/1934 (H7N1) | – | 188 ± 3.8 µM |
| COC(=O)c1ncn(C2CC(OC(=O)c3ccc(C)cc3)C(COC(=O)c3ccc(C)cc3)O2)c1C(=O)OC (stereo not drawn) | Mammarenavirus lassaense | viral replication, inhibitor | Vero | 48 h | 2 µg/mL |
| O=c1ccn([C@@H]2O[C@H](CO)[C@@H](O)[C@H](O)[C@H]2I)c(=O)[nH]1 | Japanese encephalitis virus | viral replication, inhibitor, ELISA | Vero | – | > 20 µM |
| Cn1cnc(Cn2c(=O)[nH]/c(=N\c3cc4cn(C)nc4cc3Cl)n(Cc3cc(F)c(F)cc3F)c2=O)n1 | transmissible gastroenteritis virus | viral replication, qRT-PCR | ST | 48 h | 48.5 µM |
| COc1cccc2c1C(=O)c1c(O)c3c(c(O)c1C2=O)C[C@@](O)(C(=O)CO)C[C@@H]3O[C@H]1C[C@H](N)[C@@H](O)[C@H](C)O1 | SARS-CoV-2 NLuc reporter | viral replication | Calu-3 | 16 h compound pretreatment | 0.034 µM |
| N#Cc1ncn(COCCO)c1C#N | Zaire ebolavirus | viral replication, inhibitor | Vero | 72 h | 41 µg/mL |
| O=C(O)CC1C2CCCN3CCCC(CN1CCCc1ccc(Cl)cc1)C23 (stereo not drawn) | Ebola virus | viral entry | – | EBOV GP pseudotyped HIV | > 200 µM |
| CCCc1ccc(-c2cccc(-c3nc4ccc5cc(C(=O)O)cc(O)c5c4[nH]3)c2)cc1 | Mycobacterium tuberculosis | resazurin | rel knockout | 168 h, nutrient-starved | 64 µM |

A few entries again:
| SMILES | organism | assay | test system | setting | IC50 |
| --- | --- | --- | --- | --- | --- |
| N#Cc1ncn(COCCO)c1C#N | Zaire ebolavirus | viral replication, inhibitor | Vero | 72 h | 41 µg/mL |
| O=C(O)CC1C2CCCN3CCCC(CN1CCCc1ccc(Cl)cc1)C23 (stereo not drawn) | Ebola virus | viral entry | – | EBOV GP pseudotyped HIV | > 200 µM |
